Results collected from several papers.

SMILES	assay	test system	setting	endpoint	result
FC(F)(F)c1ccc(CNc2ccc(Cc3c[nH]c4ncc(Cl)cc34)cn2)cn1	measured: skin hypopigmentation	patients with TGCT	oral, 1000 mg/day, grade 3 or higher	patients with treatment-related adverse event	0%
COc1cc(Nc2ncc3c(n2)-c2ccc(Cl)cc2C(c2c(F)cccc2OC)=NC3)ccc1C(=O)O	measured: Pain, grade 2	cancer patients, phase 1/2	oral, dose not given, added: pembrolizumab	patients with adverse event	8%
NC(=O)N1c2ccccc2C=Cc2ccccc21	–	male patients	oral, dose not given, on-treatment adverse events	patients with ALT increased	7%
Cc1cc(NC2CCN(C(=O)OC3CCN(C(=O)/C=C/CN(C)C)C3)CC2)n2ncc(C(C)C)c2n1 (stereo not drawn)	Phase I dose escalation CTCAE v4.0, measured: Vomiting	patients with advanced solid tumours	dose not given, all dose schedules any grade	patients with adverse event	22%
CNC(=O)c1cc(Oc2ccc(NC(=O)Nc3cc(C(C)(C)C)nn3-c3ccc4ncccc4c3)c(F)c2)ccn1	–	patients	oral, dose not given, cycles 1 and 2, High Cmax subgroup	patients with nervous system disorders	67%
O=C(Nc1nc2cccc(-c3ccc(CN4CCS(=O)(=O)CC4)cc3)n2n1)C1CC1	–	rheumatoid arthritis patients	oral, 100 mg twice daily, 4 weeks, regardless of relatedness	patients with any TEAE	33.3%
CNC(=O)c1ccc(-c2cnc3ncc(Cc4ccc5ncccc5c4)n3n2)cc1F	measured: Headache	hepatocellular carcinoma patients	oral, 600 mg twice daily, expansion cohort, grade 3-4	patients with adverse event	0%
Cc1cc(-c2nnc(N)nc2-c2ccc(F)cc2)cc(Cl)n1	measured: Hyperthyroidism	IO-naive colorectal cancer patients	oral, dose not given, treatment-related, all grades	patients with immune-mediated AE	0%
CCOc1c([C@H](C)n2nc(C)c3c(N)ncnc32)cc(Cl)c(F)c1[C@@H]1CNC(=O)C1	measured: QTcF ≤450 ms	previously treated B-cell malignancy	oral, 20 mg once daily, baseline QTcF ≤450 ms	patients	100%

For quick reference, copied from above:
SMILES	assay	test system	setting	endpoint	result
FC(F)(F)c1ccc(CNc2ccc(Cc3c[nH]c4ncc(Cl)cc34)cn2)cn1	measured: skin hypopigmentation	patients with TGCT	oral, 1000 mg/day, grade 3 or higher	patients with treatment-related adverse event	0%
